Measured values of several laboratories.
Every numbered part comes from another study and shows a few of its results, in no order. “And” joins repeats or separate records; there may be more than shown.
Sequence of UniProt P15170 (whole entry, looked up): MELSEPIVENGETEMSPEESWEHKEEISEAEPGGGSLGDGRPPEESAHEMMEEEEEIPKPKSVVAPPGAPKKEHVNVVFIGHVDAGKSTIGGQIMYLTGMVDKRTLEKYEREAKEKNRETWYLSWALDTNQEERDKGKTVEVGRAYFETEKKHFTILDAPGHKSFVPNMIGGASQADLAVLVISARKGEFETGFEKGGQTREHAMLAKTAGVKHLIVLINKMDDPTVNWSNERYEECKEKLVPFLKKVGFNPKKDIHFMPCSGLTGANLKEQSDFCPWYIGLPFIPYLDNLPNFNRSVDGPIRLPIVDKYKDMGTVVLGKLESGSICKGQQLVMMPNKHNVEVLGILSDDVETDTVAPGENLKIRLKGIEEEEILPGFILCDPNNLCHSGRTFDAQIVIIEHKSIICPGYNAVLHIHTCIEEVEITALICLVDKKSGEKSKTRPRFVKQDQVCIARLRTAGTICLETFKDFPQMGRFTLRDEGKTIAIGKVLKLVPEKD
Sequence of UniProt P05177 (whole entry, looked up): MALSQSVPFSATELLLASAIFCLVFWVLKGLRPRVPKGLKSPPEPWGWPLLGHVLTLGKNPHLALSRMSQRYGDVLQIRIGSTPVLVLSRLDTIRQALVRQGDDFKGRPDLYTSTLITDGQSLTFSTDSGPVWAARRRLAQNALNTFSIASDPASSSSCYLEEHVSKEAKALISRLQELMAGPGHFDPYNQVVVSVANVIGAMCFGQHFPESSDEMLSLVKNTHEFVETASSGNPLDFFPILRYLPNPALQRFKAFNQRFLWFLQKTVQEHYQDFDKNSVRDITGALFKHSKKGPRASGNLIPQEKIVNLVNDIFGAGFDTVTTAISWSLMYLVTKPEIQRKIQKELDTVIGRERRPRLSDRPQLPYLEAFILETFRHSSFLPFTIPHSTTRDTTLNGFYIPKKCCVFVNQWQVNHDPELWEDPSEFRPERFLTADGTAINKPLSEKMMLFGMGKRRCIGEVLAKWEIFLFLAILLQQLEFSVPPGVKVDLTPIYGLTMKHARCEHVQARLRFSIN
Sequence of UniProt P50613 (whole entry, looked up): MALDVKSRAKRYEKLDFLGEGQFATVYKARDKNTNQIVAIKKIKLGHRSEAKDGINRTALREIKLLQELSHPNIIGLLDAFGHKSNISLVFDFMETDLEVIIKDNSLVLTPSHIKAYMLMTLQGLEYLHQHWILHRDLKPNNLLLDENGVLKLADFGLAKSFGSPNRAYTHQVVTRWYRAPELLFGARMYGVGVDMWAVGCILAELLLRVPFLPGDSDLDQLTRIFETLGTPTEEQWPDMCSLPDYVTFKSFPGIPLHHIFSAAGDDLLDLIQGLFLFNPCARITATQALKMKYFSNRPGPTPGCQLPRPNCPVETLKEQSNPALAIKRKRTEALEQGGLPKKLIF

Set 1
SMILES: NC/C(=C\F)COc1cccc(Cn2c(=S)[nH]c(=O)c3[nH]cnc32)c1
Action: inhibitor
CYP2B6: Cytochrome P450 2B6 (CYP2B6, Homo sapiens, UniProt P20813)
Sequence of UniProt P20813 (whole entry, looked up): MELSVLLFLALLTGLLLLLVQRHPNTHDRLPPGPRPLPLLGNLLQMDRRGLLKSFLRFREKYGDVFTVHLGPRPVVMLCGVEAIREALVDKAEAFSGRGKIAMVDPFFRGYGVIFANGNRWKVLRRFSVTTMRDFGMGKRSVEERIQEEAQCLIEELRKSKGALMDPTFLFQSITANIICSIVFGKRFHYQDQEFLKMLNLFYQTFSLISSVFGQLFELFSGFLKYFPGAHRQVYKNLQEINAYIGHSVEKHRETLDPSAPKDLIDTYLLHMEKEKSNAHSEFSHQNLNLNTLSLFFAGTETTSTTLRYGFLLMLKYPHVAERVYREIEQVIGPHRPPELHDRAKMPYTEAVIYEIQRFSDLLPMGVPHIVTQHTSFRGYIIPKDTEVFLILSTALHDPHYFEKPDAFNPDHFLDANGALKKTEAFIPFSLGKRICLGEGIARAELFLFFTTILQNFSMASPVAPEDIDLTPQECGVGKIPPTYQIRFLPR
target	setting	remaining activity
CYP2B6	30 µM	56.6% and 59.2%
Cytochrome P450 1A2 (CYP1A2, Homo sapiens, UniProt P05177)	30 µM	60.5% and 76.1%
CYP2B6	3.33 µM	71.2% and 61.7%
Cytochrome P450 2C9 (CYP2C9, Homo sapiens, UniProt P11712)	0.37 µM	105% and 112%

Set 2
Compound: CC[C@@]1(c2cccc(-c3c(F)cncc3OC)c2)C2=C(Nc3n[nH]cc31)[C@H](F)C(C)(C)CC2=O (single isomer, unassigned)
Concentration: 1 µM
target	assay	scale	remaining binding [%]
CAMK4 (Homo sapiens, UniProt Q16566)	kinase binding, KINOMEscan	reference: DMSO control	100
TAOK1 (Homo sapiens, UniProt Q7L7X3)	kinase binding, KINOMEscan	reference: DMSO control	61
CSNK1E (Homo sapiens, UniProt P49674)	binding, competition with immobilised ligand	–	82
RET (Homo sapiens, UniProt P07949, M918T)	binding, competition with immobilised ligand	–	78
Tyrosine-protein kinase ABL1, non-phosphorylated (ABL1, Homo sapiens, UniProt P00519, H396P)	kinase binding, KINOMEscan	reference: DMSO control	91
MAPKAPK2 (Homo sapiens, UniProt P49137)	kinase binding, KINOMEscan	reference: DMSO control	80
TYRO3 (Homo sapiens, UniProt Q06418)	binding, competition with immobilised ligand	–	100
EPHA1 (Homo sapiens, UniProt P21709)	binding, competition with immobilised ligand	–	92

Set 3
Compound: Cn1cc(-c2cccc(CN3CCC4(CC3)COc3c4ccc4c3CN([C@H]3CCC(=O)NC3=O)C4=O)c2)cn1
Action: degrader
Zinc finger protein Aiolos: Zinc finger protein Aiolos (Homo sapiens, UniProt Q9UKT9)
Sequence of UniProt Q9UKT9 (whole entry, looked up): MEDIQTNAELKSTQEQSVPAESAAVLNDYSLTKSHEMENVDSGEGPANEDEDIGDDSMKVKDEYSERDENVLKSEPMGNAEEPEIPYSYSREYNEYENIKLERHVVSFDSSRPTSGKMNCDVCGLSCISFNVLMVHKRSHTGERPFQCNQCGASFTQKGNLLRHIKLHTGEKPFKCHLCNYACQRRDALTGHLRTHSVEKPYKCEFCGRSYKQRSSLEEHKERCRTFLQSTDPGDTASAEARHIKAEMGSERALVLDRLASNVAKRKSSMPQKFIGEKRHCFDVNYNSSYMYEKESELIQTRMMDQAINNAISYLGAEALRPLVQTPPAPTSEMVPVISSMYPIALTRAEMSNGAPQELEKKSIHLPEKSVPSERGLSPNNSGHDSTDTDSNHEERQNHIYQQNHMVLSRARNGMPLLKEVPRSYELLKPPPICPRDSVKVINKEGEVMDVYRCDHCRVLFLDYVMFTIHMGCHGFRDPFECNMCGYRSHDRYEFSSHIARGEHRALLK
CRBN/Zinc finger protein Helios: CRBN/Zinc finger protein Helios (Homo sapiens, UniProt Q96SW2+Q9UKS7)
Sequence of UniProt Q9UKS7 (whole entry, looked up): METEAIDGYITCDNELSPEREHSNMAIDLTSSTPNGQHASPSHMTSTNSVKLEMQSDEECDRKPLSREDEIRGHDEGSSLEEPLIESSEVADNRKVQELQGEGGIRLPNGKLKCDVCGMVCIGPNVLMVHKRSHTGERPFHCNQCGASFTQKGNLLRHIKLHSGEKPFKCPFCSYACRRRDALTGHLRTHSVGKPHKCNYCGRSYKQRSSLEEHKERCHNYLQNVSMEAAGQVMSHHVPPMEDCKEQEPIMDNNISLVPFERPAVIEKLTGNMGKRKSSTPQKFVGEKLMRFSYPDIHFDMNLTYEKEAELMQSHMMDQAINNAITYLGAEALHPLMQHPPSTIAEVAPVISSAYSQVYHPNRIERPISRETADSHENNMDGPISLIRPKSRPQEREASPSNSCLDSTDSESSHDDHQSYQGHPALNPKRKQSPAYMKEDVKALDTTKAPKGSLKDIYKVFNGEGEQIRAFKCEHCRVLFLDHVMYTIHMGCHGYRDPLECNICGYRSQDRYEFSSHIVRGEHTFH
Sequence of UniProt Q96SW2 (whole entry, looked up): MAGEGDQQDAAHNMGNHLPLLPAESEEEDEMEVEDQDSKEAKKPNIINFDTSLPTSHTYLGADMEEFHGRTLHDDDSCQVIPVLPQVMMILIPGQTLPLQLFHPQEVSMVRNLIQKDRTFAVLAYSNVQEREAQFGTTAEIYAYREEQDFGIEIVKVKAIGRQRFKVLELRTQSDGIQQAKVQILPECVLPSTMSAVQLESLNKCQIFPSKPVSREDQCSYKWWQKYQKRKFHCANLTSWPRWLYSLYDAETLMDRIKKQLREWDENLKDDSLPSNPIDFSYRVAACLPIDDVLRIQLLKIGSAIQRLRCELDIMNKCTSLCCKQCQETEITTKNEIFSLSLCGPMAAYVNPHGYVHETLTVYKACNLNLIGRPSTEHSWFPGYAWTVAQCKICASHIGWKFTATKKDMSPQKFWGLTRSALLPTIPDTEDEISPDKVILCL
IKZF4: Zinc finger protein Eos (IKZF4, Homo sapiens, UniProt Q9H2S9)
Sequence of UniProt Q9H2S9 (whole entry, looked up): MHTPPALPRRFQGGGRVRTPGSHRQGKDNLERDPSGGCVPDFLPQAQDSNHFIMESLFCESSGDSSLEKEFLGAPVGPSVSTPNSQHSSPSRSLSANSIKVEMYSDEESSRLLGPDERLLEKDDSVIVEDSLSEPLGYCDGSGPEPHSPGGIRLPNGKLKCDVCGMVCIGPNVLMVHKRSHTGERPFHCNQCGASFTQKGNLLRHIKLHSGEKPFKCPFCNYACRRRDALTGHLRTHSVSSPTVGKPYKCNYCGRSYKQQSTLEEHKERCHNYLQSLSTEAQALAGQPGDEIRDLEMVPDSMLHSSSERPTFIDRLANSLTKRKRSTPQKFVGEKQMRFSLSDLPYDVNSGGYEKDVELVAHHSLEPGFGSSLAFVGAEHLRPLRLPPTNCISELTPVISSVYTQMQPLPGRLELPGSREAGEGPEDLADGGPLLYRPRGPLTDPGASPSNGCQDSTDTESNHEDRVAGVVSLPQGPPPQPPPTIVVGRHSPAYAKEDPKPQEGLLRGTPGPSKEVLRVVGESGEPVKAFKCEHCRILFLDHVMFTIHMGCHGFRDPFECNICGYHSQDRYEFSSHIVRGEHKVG
target	assay	test system	setting	remaining protein
Zinc finger protein Aiolos	HiBiT	HEK293	4.572 nM	93.2% and 96.6%
CRBN/Zinc finger protein Helios	flow cytometry	primary human regulatory T cells	111.1 nM, 3 h	33.9% and 27.4%
IKZF4	HiBiT	HEK293	0.05081 nM, 3 h	107% and 95.3%
Zinc finger protein Aiolos	HiBiT	HEK293	123.5 nM	96.1% and 87.6%
GSPT1 (Homo sapiens, UniProt P15170)	HiBiT	HEK293	13.72 nM	99.9% and 99%
IKZF4	HiBiT	HEK293	37.04 nM, 3 h	110% and 118%
CRBN/Zinc finger protein Helios	flow cytometry	primary human regulatory T cells	1000 nM, 6 h	4.62% and 7.58%
Zinc finger protein Aiolos	HiBiT	HEK293	41.15 nM	91.9% and 92.4%
IKZF4	HiBiT	HEK293	1.372 nM, 6 h	103% and 104%
Sal-like protein 4 (SALL4, Homo sapiens, UniProt Q9UJQ4)	HiBiT	HEK293	0.1694 nM	80.9% and 107%

Set 4
Compound: O=C(Nc1ccccc1)Nc1cccc(Oc2ccc3nccn3n2)c1
Concentration: 1 µM
target	assay	setting	remaining binding [%]
MERTK (Homo sapiens, UniProt Q12866)	binding, competition with immobilised ligand	–	96
JAK2 (Homo sapiens, UniProt O60674)	cell-free binding	JH1 catalytic domain	93
FLT3 (Homo sapiens, UniProt P36888, D835H)	binding	–	100
KIT (Homo sapiens, UniProt P10721, D816V)	binding	–	82
MAP3K15 (Homo sapiens, UniProt Q6ZN16)	binding	–	100
TNK2 (Homo sapiens, UniProt Q07912)	binding, competition with immobilised ligand	–	100
FLT3 (Homo sapiens, UniProt P36888, K663Q)	binding	–	100
CDK7 (Homo sapiens, UniProt P50613)	binding, competition with immobilised ligand	–	100
